Assay results pooled from the literature.
Each numbered part is a random draw from the data of one study; scales do not carry over between parts. Substitutions count along the parent as printed.
UniProt Q8IYT8, sequence (whole entry, looked up): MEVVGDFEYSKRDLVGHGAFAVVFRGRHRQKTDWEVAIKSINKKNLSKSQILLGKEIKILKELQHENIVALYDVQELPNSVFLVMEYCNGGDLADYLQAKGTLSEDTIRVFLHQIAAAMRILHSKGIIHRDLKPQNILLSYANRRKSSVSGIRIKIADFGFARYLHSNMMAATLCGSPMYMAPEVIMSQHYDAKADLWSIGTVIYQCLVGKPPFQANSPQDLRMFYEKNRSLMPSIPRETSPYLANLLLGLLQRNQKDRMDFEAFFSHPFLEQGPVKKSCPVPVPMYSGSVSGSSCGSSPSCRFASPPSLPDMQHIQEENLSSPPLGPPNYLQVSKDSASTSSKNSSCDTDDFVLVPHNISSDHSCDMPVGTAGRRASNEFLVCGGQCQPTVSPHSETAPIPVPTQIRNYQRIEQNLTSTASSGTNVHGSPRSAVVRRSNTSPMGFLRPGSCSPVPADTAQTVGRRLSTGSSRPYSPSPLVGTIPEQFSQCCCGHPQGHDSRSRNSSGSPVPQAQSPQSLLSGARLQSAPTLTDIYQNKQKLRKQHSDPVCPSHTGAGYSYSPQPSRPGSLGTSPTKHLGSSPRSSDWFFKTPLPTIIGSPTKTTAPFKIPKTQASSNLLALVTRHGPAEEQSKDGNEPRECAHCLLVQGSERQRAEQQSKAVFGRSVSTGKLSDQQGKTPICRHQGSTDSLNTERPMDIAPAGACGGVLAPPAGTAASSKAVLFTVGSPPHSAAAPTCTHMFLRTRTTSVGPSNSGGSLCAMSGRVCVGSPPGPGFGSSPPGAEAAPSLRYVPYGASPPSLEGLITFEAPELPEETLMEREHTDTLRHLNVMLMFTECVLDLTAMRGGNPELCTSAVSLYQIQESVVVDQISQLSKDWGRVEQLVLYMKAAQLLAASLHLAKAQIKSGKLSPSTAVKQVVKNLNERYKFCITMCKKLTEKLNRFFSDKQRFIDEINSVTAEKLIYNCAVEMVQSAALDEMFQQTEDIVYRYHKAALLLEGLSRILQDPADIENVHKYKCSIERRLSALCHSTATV
UniProt Q6P2M8, sequence (whole entry, looked up): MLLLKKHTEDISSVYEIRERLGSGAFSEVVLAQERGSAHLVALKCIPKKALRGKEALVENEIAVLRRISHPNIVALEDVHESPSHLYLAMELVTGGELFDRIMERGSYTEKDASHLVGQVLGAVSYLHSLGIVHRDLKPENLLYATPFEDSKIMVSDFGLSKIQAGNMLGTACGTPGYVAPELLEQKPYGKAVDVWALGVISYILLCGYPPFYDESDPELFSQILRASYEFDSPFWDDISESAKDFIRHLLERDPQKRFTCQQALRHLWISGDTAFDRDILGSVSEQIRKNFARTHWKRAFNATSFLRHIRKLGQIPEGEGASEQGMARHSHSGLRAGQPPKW
UniProt Q13464, sequence (whole entry, looked up): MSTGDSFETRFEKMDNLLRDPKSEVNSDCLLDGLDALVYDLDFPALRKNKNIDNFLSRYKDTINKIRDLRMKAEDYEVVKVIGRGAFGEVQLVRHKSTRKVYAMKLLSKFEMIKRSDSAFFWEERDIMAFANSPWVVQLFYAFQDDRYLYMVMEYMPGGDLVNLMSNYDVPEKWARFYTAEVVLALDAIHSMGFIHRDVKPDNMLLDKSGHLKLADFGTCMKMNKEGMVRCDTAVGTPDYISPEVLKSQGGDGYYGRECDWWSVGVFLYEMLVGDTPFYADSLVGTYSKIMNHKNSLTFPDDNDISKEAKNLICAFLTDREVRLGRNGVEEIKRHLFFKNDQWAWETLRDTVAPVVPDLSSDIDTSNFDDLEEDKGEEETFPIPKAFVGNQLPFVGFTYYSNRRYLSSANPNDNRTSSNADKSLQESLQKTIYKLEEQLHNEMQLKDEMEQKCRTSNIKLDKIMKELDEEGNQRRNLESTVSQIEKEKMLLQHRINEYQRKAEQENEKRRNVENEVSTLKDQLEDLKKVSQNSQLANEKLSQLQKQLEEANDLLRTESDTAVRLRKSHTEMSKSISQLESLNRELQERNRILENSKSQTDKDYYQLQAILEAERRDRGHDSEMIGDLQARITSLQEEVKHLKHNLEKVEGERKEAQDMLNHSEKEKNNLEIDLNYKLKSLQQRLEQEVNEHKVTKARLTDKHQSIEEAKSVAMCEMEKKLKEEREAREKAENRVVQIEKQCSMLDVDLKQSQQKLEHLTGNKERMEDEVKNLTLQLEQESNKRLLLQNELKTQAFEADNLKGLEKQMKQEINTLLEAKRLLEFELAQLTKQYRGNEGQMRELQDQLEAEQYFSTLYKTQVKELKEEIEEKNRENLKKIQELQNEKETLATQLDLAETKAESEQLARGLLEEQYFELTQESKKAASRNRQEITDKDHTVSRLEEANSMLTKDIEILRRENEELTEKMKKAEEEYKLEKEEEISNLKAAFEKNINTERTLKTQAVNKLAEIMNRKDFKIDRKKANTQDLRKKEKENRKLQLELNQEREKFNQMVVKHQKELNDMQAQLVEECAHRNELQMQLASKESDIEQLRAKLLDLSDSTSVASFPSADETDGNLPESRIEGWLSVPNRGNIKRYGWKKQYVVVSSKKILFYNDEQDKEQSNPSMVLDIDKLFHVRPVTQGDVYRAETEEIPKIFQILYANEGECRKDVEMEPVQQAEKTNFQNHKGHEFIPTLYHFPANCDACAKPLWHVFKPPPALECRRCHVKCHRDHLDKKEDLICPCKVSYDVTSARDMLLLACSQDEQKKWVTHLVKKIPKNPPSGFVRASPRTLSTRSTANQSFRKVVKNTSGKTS
UniProt Q9H2G2, sequence (whole entry, looked up): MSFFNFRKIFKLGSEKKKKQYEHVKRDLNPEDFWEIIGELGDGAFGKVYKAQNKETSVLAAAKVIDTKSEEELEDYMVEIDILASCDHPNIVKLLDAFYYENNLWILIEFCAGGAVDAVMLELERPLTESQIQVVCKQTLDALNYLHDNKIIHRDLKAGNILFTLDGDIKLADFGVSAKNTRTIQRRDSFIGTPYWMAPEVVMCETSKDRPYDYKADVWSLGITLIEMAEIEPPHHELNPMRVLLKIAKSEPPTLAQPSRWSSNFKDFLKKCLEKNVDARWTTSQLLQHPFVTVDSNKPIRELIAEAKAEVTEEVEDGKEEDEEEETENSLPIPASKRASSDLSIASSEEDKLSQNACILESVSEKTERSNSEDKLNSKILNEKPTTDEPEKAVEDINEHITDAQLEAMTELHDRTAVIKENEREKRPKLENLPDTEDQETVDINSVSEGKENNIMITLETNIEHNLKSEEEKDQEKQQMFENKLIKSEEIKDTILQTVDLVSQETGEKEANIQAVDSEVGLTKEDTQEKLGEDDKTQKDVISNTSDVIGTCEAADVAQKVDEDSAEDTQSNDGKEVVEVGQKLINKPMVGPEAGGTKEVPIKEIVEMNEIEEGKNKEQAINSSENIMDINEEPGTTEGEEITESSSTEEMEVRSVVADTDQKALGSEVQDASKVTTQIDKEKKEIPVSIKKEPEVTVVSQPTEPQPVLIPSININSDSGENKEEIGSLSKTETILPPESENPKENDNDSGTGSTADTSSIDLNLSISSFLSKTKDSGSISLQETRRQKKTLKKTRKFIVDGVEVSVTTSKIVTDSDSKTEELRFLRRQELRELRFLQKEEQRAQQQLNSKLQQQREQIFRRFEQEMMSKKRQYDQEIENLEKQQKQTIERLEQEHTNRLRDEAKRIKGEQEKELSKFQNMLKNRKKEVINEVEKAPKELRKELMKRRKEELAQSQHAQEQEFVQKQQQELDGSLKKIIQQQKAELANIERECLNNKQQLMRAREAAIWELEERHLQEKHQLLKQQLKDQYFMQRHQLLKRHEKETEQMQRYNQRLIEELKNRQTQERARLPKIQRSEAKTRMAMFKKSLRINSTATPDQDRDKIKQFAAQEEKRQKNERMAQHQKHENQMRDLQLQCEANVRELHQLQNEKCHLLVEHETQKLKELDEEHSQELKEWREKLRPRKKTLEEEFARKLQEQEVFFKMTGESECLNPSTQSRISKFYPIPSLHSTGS
UniProt Q92630, sequence (whole entry, looked up): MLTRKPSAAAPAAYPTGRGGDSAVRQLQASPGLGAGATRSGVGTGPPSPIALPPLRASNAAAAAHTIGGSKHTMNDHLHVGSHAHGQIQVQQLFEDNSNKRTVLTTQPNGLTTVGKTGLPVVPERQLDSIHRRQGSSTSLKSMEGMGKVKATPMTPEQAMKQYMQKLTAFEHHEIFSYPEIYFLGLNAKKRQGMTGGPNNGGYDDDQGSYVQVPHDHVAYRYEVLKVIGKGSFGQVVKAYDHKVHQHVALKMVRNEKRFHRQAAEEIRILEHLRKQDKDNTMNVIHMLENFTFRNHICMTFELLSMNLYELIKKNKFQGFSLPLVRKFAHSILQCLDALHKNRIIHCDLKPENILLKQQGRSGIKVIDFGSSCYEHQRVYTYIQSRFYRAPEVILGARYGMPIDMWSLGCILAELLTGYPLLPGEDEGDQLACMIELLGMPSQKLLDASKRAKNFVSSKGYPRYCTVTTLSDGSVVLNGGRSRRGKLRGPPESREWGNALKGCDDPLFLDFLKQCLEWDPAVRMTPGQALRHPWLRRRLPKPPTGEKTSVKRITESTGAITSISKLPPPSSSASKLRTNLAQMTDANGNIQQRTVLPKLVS
UniProt Q00537, sequence (whole entry, looked up): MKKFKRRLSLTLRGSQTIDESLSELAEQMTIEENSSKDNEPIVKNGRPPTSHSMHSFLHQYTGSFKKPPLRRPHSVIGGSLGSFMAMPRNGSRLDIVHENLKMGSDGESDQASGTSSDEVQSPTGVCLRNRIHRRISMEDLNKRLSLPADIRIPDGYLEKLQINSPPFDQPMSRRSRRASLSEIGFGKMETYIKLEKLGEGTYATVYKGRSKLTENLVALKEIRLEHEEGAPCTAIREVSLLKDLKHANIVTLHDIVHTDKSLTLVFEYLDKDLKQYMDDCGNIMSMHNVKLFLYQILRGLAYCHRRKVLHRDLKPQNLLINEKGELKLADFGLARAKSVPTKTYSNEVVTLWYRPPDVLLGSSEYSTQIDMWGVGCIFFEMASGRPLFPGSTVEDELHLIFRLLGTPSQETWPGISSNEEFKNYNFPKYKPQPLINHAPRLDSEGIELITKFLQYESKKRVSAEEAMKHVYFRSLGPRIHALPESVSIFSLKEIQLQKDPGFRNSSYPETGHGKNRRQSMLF

Sample 1 — method: RNA Bind-n-Seq; molecule type: RNA; sample: in vitro; tested at: 200 nM; notes: whole 134-nt RNA, ends assumed; with: 150 mM KCl; baseline: input library; reading: higher = stronger binding; measurement: log2 enrichment
Target: Fragile X messenger ribonucleoprotein 1, C-terminal low-complexity region (Fmr1, Mus musculus, UniProt P35922)
Constant ends, left off below: GGGAGUUCUACAGUCCGACGAUC … UGGAAUUCUCGGGUGUCAAGG
UUCCAACAGUUAUGGGAUCCCAGAACCUGCUCAUGCAUACGCUCAACCUCAGACCACAACUCCUCUACCUGCAGUUUCCGGUUCUCCUGG: 0.2
CAAGUCCUGUGCUACACAUCGUAUGUACCGAAUCGGGGAAAGGAAAGGAAAGGGGAAAGUAUUAUGUUACGCCGUUCGGAUCUGCACUUC: -0.2
CAAGUCCUGUGCUACACAUCGUAUGUACCGAAUCGGAAAAGGAAAAGGAAAAGGGGAAAGUAUUAUGUUACGCCGUUCGGAUCUGCACUU: -0.627
UGGUCAUGGGAUGGAGAACCAGUUCUUCCCUUAUAUCUUCACCAUAUGACUAUUGACCCUGUCUUAGGCUGCUCCCAGGCCGUUCCAUUG: 1.23
UAACUUUAGAGGAGGAUCUGAUGGAUAUGGCAGUGGACGUGGAUUUGGGGAUGGCUAUAAUGGGUAUGGAGGAGGACCUGGAGGCGGCAA: 0.153
CACAGACACCACGCACCCACACAGACACAGAGGGAAGGGGUUGGGAUGGGGACAGGGUGCACAGCAGGGCGGGGUAGGACCCCAGCCCCU: 1.23
UUCCUCAAGUCCUGUGCUACACAUCGUAUGUACCGAAUCGGUGGUGGGUGGAAAGUAUUAUGUUACGCCGUUCGGAUCUGCACUUCCAGC: -0.0293
UCCACCCCUUCUUCCUCCCUUUAACUUAUCCAUUCACUUAAAACAUUACCUGGUCAUCUGGUAAGCCCGGGACAGUAAGCCGAGUGGCUG: 0.177

Sample 2 — SMILES: CC(C)n1cnc2c(Nc3cccc(Cl)c3)nc(NCCO)nc21; read-out: enzyme activity; mode: inhibitor; tested at: 0.5 µM; baseline: control; measurement: remaining activity
Vascular endothelial growth factor receptor 2 (KDR, Homo sapiens, UniProt P35968): 103%
Calcium/calmodulin-dependent protein kinase type IV (CAMK4, Homo sapiens, UniProt Q16566): 101%
Mitogen-activated protein kinase 14 (MAPK14, Homo sapiens, UniProt Q16539): 90.7%
Serine/threonine-protein kinase MARK2 (MARK2, Homo sapiens, UniProt Q7KZI7): 98.7%
Calcium/calmodulin-dependent protein kinase type 1B (PNCK, Homo sapiens, UniProt Q6P2M8): 100%
MAP/microtubule affinity-regulating kinase 4 (MARK4, Homo sapiens, UniProt Q96L34): 88.1%
Ribosomal protein S6 kinase alpha-4 (RPS6KA4, Homo sapiens, UniProt O75676): 83.8%
Rho-associated protein kinase 1 (ROCK1, Homo sapiens, UniProt Q13464): 101%
Dual specificity mitogen-activated protein kinase kinase 1 (MAP2K1, Homo sapiens, UniProt Q02750): 92.8%
G protein-coupled receptor kinase 4 (GRK4, Homo sapiens, UniProt P32298): 93.5%
Mitogen-activated protein kinase 11 (MAPK11, Homo sapiens, UniProt Q15759): 92.2%
Tyrosine-protein kinase TXK (TXK, Homo sapiens, UniProt P42681): 78.1%
Cyclin-dependent kinase 9, with cyclin K (CDK9, Homo sapiens, UniProt P50750): 86.9%

Sample 3 — target: CEP164, C-terminal peptide (human); method: DHFR complementation, deep sequencing; sample: yeast; baseline: wild type; reading: higher = weaker binding; measurement: binding free energy change
Notes: single substitutions, model-inferred values
Starting sequence: PDZK1, PDZ domain 2 (human); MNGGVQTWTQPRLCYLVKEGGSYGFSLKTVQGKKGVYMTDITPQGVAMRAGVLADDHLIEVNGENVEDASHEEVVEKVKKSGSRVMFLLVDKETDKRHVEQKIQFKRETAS; partner HNRVKVYRF
Q6Y: -0.022 kcal/mol
S111K: 0.113 kcal/mol
L53V: 0.0193 kcal/mol
L88H: 0.195 kcal/mol
G3H: 0.00476 kcal/mol
G3T: -0.0528 kcal/mol
L13N: 0.0981 kcal/mol
H98P: 0.0313 kcal/mol

Sample 4 — read-out: cell-free assay; method: competition with immobilised ligand; tested at: 1 µM; measurement: remaining binding
SMILES: CCC(=O)N[C@@H]1CC[C@H](C(=O)N(C)c2ccc(-c3nc4ccccc4o3)cc2)C1
Cyclin-dependent kinase 17 (CDK17, Homo sapiens, UniProt Q00537): 100%
1-phosphatidylinositol 3-phosphate 5-kinase (PIKFYVE, Homo sapiens, UniProt Q9Y2I7): 93%
Myosin-IIIa (MYO3A, Homo sapiens, UniProt Q8NEV4): 100%
Phosphatidylinositol 3-kinase C2 domain-containing subunit gamma (PIK3C2G, Homo sapiens, UniProt O75747): 57%
Dual specificity tyrosine-phosphorylation-regulated kinase 2 (DYRK2, Homo sapiens, UniProt Q92630): 100%
STE20-like serine/threonine-protein kinase (SLK, Homo sapiens, UniProt Q9H2G2): 100%
Serine/threonine-protein kinase ULK2 (ULK2, Homo sapiens, UniProt Q8IYT8): 100%
Protein-tyrosine kinase 2-beta (PTK2B, Homo sapiens, UniProt Q14289): 100%
